Published values pooled from the literature.
A part holds a random share of what one study measured. Substitutions count along the parent as printed.

Study 1
Target: CCND1, cyclin fold, Cln2 fusion (human)
Method: yeast growth competition, sequencing
Sample: yeast
Notes: weak parent motif
Relative to: not given
Direction: higher = stronger binding
Endpoint: normalised enrichment score
Starting sequence: ASZ1 docking peptide (human); GFGFLLFICKLTF; partner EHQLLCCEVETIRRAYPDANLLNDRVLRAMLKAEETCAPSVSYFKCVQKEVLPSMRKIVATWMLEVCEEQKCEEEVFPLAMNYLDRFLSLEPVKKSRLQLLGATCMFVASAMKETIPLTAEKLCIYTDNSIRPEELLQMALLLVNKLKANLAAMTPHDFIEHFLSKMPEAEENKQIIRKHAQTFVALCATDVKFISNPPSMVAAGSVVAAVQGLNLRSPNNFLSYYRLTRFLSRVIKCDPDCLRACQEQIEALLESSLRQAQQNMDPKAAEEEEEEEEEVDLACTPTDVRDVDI
GFGFLLFICALTF [K10A]: -0.378
GFGFLLAICKLTF [F7A]: -0.121
GFAFLLFICKLTF [G3A]: -0.301
AFGFLLFICKLTF [G1A]: -0.328
GFGFALFICKLTF [L5A]: -0.205
GFGALLFICKLTF [F4A]: -0.111
GFGFLLFICKLTA [F13A]: 0.00373

Study 2
Target: Ras GTPase-activating protein-binding protein 1, full length (G3BP1, Homo sapiens, UniProt Q13283)
Sequence of UniProt Q13283 (whole entry, looked up): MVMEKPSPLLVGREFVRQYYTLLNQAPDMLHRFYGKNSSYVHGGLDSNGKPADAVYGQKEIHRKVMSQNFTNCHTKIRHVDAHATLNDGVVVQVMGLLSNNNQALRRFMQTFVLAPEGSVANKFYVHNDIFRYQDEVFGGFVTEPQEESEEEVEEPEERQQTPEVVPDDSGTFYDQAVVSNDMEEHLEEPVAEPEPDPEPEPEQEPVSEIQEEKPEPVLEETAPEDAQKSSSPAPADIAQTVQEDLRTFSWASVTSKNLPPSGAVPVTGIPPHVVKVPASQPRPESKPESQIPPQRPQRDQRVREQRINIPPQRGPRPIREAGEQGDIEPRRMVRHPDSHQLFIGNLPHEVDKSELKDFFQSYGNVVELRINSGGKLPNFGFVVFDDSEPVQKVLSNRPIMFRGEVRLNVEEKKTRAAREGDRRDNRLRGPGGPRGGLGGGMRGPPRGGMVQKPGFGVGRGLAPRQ
Method: RNA Bind-n-Seq
Form: RNA
Sample: in vitro
Tested at: 200 nM
Notes: whole 134-nt RNA, ends assumed
Added: 150 mM KCl
Relative to: input library
Direction: higher = stronger binding
Endpoint: log2 enrichment
All sequences stand within: GGGAGUUCUACAGUCCGACGAUC … UGGAAUUCUCGGGUGUCAAGG
CUCAAGUCCUGUGCUACACAUCGUAUGUACCGAAUCGGUUUGGUGGAAAAAGGAAAGUAUUAUGUUACGCCGUUCGGAUCUGCACUUCCA: -0.325
CAAGUCCUGUGCUACACAUCGUAUGUACCGAAUCGGAGGUUUUUUUGGUUUUUGGAAAGUAUUAUGUUACGCCGUUCGGAUCUGCACUUC: -1.24
UUCAGGAUUGUGAGGGUGAAACUCCCAUUCACAAGGCAGCUCGCUCUGGGAGCCUAGAAUGCAUCAGUGCCCUUGUGGCGAAUGGGGCUC: -1.38
CAAGUCCUGUGCUACACAUCGUAUGUACCGAAUCAAAUUUAAACCCAAAUUUAAAAAAGUAUUAUGUUACGCCGUUCGGAUCUGCACUUC: -0.404
CACAGACAACACGCACCCACACAGACACAGAGGGAAGGGGUUGGGAUGGGGACAGGGUGCUCAGCAGGGCGGGGUAGGACCCCAGCCCCU: 1.88
GUCCUGUGCUACACAUCGUAUGUACCGAAUCGGUUUUUGGUUUUUUUGGUUUUUUUGGAAAGUAUUAUGUUACGCCGUUCGGAUCUGCAC: -1.23
ACCAUGCAGGUGGGCAUCUUUGGGAAGUGGGACAAGGGGGGGAUAGGGAGGGGGGUAACACUUUGGGAACAGGUGGUCCCAGGUCGUUUC: 1.08
AGUUACUCAGUUCAUUUUGGAUAACUACAUUGAAAGAGGAAAAGGAUCUGCUUGCAGAAUAGUUUGUACUCAGCCAAGAAGAAUUAGUGC: -2.13
AAGUCCUGUGCUACACAUCGUAUGUACCGAAUCGGGGAAAAGGGAAAAGGGAAAAGGAAAGUAUUAUGUUACGCCGUUCGGAUCUGCACU: -0.574
CCUGUGCUACACAUCGUAUGUACCGAAUCGGGCCCCCCGGGCCCCCCGGGGCCCCCCGGGGAAAGUAUUAUGUUACGCCGUUCGGAUCUG: -0.722
ACCAUGCAGGUGGGCAUCUUUGGGAAGUGGGGCAAGGGGGGGAUAGGGAGGGGGGUAACACUUUUGGAACAGGUGGUCCCAGGUCGUUUC: 1.63
ACCAUACAGGUGGGCAUCUUUGGGAAGUGGGGCAAGGGGGGGAUAGGGAGGGGGGUAACACUUUGGGAACAGGUGGUCCCAGGUCGUUUC: 1.12
GAGGAGAUAAUCUCGGAAAAGUUACGGAAACCUGGGAAGUCGGCGAAACCCUACGUUCGGGUGUUUUCGGAAGCAGCCGAAGCGGCCGCC: -0.762
ACCAUGCAGGUGGGCAUCUUUGGGAAGUGGGGCAGGGGGGGGAUAGGGAGGGGGGUAACACUUUGGGAACAGGUGGUCCCAGGUCGUUUC: 1.22

Study 3
Target: Max dimerization protein 1, bHLH-zipper, MAX partner unstated (MXD1, Homo sapiens, UniProt Q05195, residues 56-136)
Method: protein-binding microarray
Form: double-stranded DNA, one strand shown
Sample: in vitro
Tested at: not given
Notes: k-mer, scored over probes, only values ≥0.25
Direction: higher = stronger binding
Endpoint: E-score
Construct (chain): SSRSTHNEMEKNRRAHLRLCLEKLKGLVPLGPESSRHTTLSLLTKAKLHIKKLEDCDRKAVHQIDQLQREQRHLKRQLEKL
ACCTCATG: 0.377
ATAACGCG: 0.254
ACATGTAG: 0.309
CACGCATC: 0.276
AATGTGCA: 0.262
AAGACATG: 0.309
ACCCCTCC: 0.332
CATGCGGC: 0.412
CTCATGGC: 0.371
CGTGGTTC: 0.37
CCCATGAG: 0.257
CGGCATGC: 0.361
AGGCACAT: 0.255
TAACCACA: 0.252
AACGTGTG: 0.409
AGCAGGTG: 0.3
ACACGATG: 0.327
GCATGGCC: 0.401
CAGGTGGG: 0.328

Study 4
Target: Sal-like protein 4, full length isoform A (SALL4, Homo sapiens, UniProt Q9UJQ4, residues 1-1053)
Sequence of UniProt Q9UJQ4 (whole entry, looked up): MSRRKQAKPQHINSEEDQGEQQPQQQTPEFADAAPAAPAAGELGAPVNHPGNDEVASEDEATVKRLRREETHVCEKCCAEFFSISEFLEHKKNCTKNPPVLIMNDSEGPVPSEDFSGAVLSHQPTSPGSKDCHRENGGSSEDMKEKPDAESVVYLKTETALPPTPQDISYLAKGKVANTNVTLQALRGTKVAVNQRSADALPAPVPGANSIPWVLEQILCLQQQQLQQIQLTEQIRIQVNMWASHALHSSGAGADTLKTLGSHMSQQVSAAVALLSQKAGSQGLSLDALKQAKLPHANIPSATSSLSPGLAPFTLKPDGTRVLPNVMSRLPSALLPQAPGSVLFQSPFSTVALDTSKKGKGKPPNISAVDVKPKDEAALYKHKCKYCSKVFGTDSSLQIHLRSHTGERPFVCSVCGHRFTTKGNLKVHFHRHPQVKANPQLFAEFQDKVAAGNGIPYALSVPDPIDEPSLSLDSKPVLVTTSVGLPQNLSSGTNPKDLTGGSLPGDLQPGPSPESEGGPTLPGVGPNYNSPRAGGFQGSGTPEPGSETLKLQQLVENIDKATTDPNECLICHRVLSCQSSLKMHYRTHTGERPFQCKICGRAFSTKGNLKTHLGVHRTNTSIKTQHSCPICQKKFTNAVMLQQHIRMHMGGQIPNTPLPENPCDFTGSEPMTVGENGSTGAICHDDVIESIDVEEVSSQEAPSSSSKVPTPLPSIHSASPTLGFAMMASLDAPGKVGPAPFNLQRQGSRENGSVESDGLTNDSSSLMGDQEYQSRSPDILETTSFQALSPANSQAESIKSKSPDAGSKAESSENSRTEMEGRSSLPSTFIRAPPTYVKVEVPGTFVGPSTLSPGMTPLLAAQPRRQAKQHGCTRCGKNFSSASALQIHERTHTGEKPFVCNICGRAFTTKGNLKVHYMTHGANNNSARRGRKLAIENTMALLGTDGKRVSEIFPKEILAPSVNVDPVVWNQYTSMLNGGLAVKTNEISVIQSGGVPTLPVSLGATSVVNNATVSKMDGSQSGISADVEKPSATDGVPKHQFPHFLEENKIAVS
Method: universal PBM
Form: double-stranded DNA, one strand shown
Sample: in vitro
Tested at: 600 nM
Notes: 8-mer, flanks averaged, mean of replicates
Direction: higher = stronger binding
Endpoint: E-score
GCTACCAC: -0.151
AGCGAGGA: -0.122
CCTGCGCG: -0.176
GCAGACAC: -0.0677
AATATGCC: 0.161
ACCACAAA: 0.128
GATCTTGC: 0.0303
AGTCTAAT: 0.196
GACGCCGA: -0.218
CAGCATAG: 0.0833
GATCATAC: 0.0548
ATAGACTG: 0.1
AGAAAAAT: 0.359
CCTGCTTC: -0.164
AGAGGTAG: -0.000245
AAATAGAT: 0.305
ATTACCTC: 0.189
CACTGGAG: -0.215
TCCACAAA: 0.178
GACCGACC: -0.283
ACCCTTGC: -0.212
AAGCGACC: -0.19
GAGGTAAA: 0.0956
CATACGAA: 0.15
AAGACGTC: -0.0679

Study 5
Target: Prothrombin, mature alpha-thrombin (F2, Homo sapiens, UniProt P00734)
Method: aptamer microarray, sandwich
Form: DNA with 2'F-ANA
Sample: in vitro
Tested at: 200 nM
Notes: whole 15-mer aptamer, many near background
Added: Cy3 exosite-II aptamer, 400 nM
Direction: higher = stronger binding
Endpoint: mean fluorescence intensity
Oligonucleotide: GGTTGGTGTGGTTGG
2'F-ANA at 3 5 6 7 10 13: 59.1 a.u.
2'F-ANA at 1 3 4 6 7 9 11 12 14: 68.7 a.u.
2'F-ANA at 1 2 5 8 12 15: 115 a.u.
2'F-ANA at 6 8 9 11 12 13: 567 a.u.
2'F-ANA at 2 3 5 8 11 14: 53.7 a.u.
2'F-ANA at 3 4 6 8 9 10 13 14: 158 a.u.
2'F-ANA at 2 4 6 9 13: 151 a.u.
2'F-ANA at 1 2 4 5 6 7 8 9 13 14 15: 49.5 a.u.
2'F-ANA at 1 2 3 6 9 13: 138 a.u.
2'F-ANA at 1 2 3 6 9 14: 63.5 a.u.
2'F-ANA at 4 7 10 11 12: 116 a.u.
2'F-ANA at 4 6 7 9 11 13 15: 132 a.u.
2'F-ANA at 2 6 7 14: 141 a.u.
2'F-ANA at 1 4 6 8 10 13: 69.5 a.u.
2'F-ANA at 1 2 3 7 9 13 14: 65.1 a.u.
2'F-ANA at 6 9 10 11: 137 a.u.
2'F-ANA at 3 4 6 7 8 9 10 11 13 14 15: 150 a.u.
2'F-ANA at 1 2 8 10 11 12 13 14: 52.7 a.u.
2'F-ANA at 1 2 5 6 8 11 12 13 14: 48.3 a.u.
2'F-ANA at 1 3 4 5 6 7 8 11 13: 56.4 a.u.
2'F-ANA at 1: 224 a.u.
2'F-ANA at 1 3 4 5 6 7 11 13: 46.3 a.u.
2'F-ANA at 2 5 9 11: 85.8 a.u.
2'F-ANA at 1 3 5 8 10 11 12 15: 50.9 a.u.
2'F-ANA at 1 4 5 7 8 9 10 12: 51.7 a.u.

Study 6
Target: RING finger protein unkempt homolog, zinc fingers 1-6, SBP tag (UNK, Homo sapiens, UniProt Q9C0B0, residues 30-357)
Sequence of UniProt Q9C0B0 (30-357, looked up): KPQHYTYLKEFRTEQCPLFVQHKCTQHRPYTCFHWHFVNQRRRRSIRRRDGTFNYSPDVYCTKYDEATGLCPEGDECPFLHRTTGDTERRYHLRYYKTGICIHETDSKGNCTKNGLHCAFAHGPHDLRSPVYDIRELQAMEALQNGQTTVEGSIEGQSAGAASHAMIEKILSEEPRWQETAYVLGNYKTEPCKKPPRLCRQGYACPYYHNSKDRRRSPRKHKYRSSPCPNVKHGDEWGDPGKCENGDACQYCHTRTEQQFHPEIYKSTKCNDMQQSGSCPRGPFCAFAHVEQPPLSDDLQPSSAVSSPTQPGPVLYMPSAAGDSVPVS
Method: RNA Bind-n-Seq
Form: RNA
Sample: in vitro
Tested at: 100 nM
Notes: RNA with constant flanks, vertebrate orthologous sites, ends assumed
Relative to: input RNA pool
Direction: higher = stronger binding
Endpoint: bound/input enrichment
All sequences stand within: GGGAGUUCUACAGUCCGACGAUC … CAACAGAGGAUUGAGCAUCA
UACCAGCUUAGCGAACACAGUUUUGGAGAAAUAAUAAUAAUAUUUAAAAAAUAAAGAGCCUGAUUGGUAUCUUUUUGUCUAACUGUUUUUCAAAGAGAAAGUUUAAAAGAAAAAAAAAGA: 0.517 ratio
GAAUACUCCAAAUCCUAAAUUACACUGAGAUCUAGACCUUCAUUUGGCAGGGUCAGGCCAUUGGAUGGUGUUGCUGUAUUGUCUUGUCGUGUUUUUAAAAUCUGUGCACUUUGUCCAAAG: 0.583 ratio
GCCGUCUGAUUGGAUAAAGACCGUCCCAAGUUACAACCAAACAAACAGUUCCAUGGACUUUAGAAAUUAUAUGAUGCGAGAUGAAAAUCUGGAACCACUGCCCAAAAACUGGGAAAUGGC: 0.722 ratio
GUUGGUGCAGAGUGCUCUCUGUGCCGGUGCCCAUCAUCCUUUCUUCAUACCAACUGUCCCUAGUUCUAGGAAUUUAAUAUUUUUAAAAGUUUUACAUUGCUGUAUAUUCAAAGAUUUGUU: 0.79 ratio
GUUAGGUCAUGACCCUUACAGGCUAGGUCAUGAUGCCUACAGGUUAGGGCAAGACCCCUAUAGAUUAGGCCAUGAUCCCUACAGACUAACUCCUGAUCCCUAUAGGAUGUCACCUAGACC: 0.506 ratio
CAUUUUCUUAUUUUAGGUAUCAUUGCCCAAUGCCCAAGAUCUUUUAUGUUCAGCUGACUGUAGGAAAUAAUGAAUUUUUUGGAGAAGGAAAGACUCGGCAGGCUGCUAGACACAACGCUG: 1.34 ratio
CCAAAGUUACAAAGUUGGAAUUUGCUGAUUUUUGUUUCGUUUUCUUUUUGUUGUUGAAGGGAGAACCCCUGGCGUUCUACAUGAAACUAACUAGUAGUUUUUGAGAAUCCUAUAAUAUGU: 0.182 ratio
ACACUCACAUUGUGGCAAACAGUCAACAUGGAAGUAGACCGGCUCUGCUGAUUUGAAAUUUAGAUUUUUUUUUAAUUAUGUACUGGGGACAGGUUUUUGUCGCUUUACAUUGCUUCCUAG: 4.66 ratio
UUCAGGCACAACUGACUGGUUCGCAGCAUUCCUUACAUAGUUAUCUAUCAAAUGCAAGUGUAGUUAAUUUUCAGGAAACAACCAGACAGUCAUCUUUAUCCUGCAGCUCAGUUGGAGAUU: 1.04 ratio
ACAGUCCUCUUCUUAAACUGGUAUUUUCACACAAUAGGAAACUAUUAUUGUUUUUCACAGUCUAGUAUCUGGGUUUUACACGGAAGACUAAACUCAUGCUUACAGCUAAACGUGGUCUUU: 0.389 ratio
AUAGGGGUGGGGUGGGAAAGGGAUAUGGAUGUUAGGAUGUUAUUGGCAUUUUUAAGUGUUCCAGGGUUUUGUUUUGUUGUUGUUAAUGUUCCUGUUUUCCCCUCAUUAAUUGGAUGCACU: 0.973 ratio

A few entries again (study 1):
GFGFALFICKLTF [L5A]: -0.205
AFGFLLFICKLTF [G1A]: -0.328
GFGFLLFICKLTA [F13A]: 0.00373
GFGFLLFICALTF [K10A]: -0.378
GFGFLLAICKLTF [F7A]: -0.121
GFAFLLFICKLTF [G3A]: -0.301
GFGALLFICKLTF [F4A]: -0.111
